{"data": "Measurements pooled from the literature", "cell line": "SK-MEL-28", "note": "Lines come from different studies, so protocols differ. Values joined by “and” are separate records of one study, mostly repeats; a detail may differ. ± marks the error that the study gave."}
{"Compound": "COc1ccc2c(c1)/C(=N\\Nc1nnc3n1N=C(c1ccccc1)CS3)C(=O)N2", "test": "cell growth or viability, SRB", "conditions": "10 µM", "quantity": "inhibition", "value": "15%"}
{"Compound": "CC(Cc1ccc(Cl)cc1)=C(c1ccc(Cl)cc1)c1ccc(OCCN(C)C)cc1", "test": "cell growth or viability, SRB", "quantity": "GI50", "value": "4850 nM"}
{"Compound": "N#Cc1c(-c2cccs2)cc(-c2cccc3ccccc23)nc1Nc1ccc(Nc2nc(-c3cccc4ccccc34)cc(-c3cccs3)c2C#N)cc1", "test": "cell growth or viability, MTT", "conditions": "72 h", "quantity": "IC50", "value": "563 nM"}
{"Compound": "CCCCCCCCC1(CCCCCCCC)c2cc(-c3cc4[n+]5c(c3)-c3cccc[n+]3[Ir-3]536([c]5ccccc5-c5cc(-c7ccccc7)cc([n+]53)-c3cccc[c]36)[n+]3ccccc3-4)ccc2-c2ccc(-c3cc4[n+]5c(c3)-c3cccc[n+]3[Ir-3]536([c]5ccccc5-c5cc(-c7ccccc7)cc([n+]53)-c3cccc[c]36)[n+]3ccccc3-4)cc21.F[P-](F)(F)(F)(F)F.F[P-](F)(F)(F)(F)F", "test": "cell viability, resazurin", "conditions": "16 h plus 48 h, dark", "quantity": "EC50", "value": "69500 ± 1000 nM"}
{"Compound": "N#Cc1c(-c2cccs2)cc(-c2cccc3ccccc23)n2c(Cc3ccccc3)nnc12", "test": "cell growth or viability, MTT", "conditions": "72 h", "quantity": "IC50", "value": "1370 nM"}
{"Compound": "CC(C)(C)c1nc(-c2cccc(NS(=O)(=O)c3c(F)cccc3F)c2F)c(-c2ccnc(N)n2)s1.Cc1[nH]c2ccccc2c1CCNCc1ccc(/C=C/C(=O)NO)cc1", "test": "flow cytometry", "conditions": "concentration not given, 48 h", "quantity": "sub-G1 cells", "value": "> 80% and 88.5%"}
{"Compound": "FC(F)(F)c1ccnc(-c2cc(C(F)(F)F)ccn2)c1.FC(F)(F)c1ccnc(-c2cc(C(F)(F)F)ccn2)c1.[Cl-].[Cl-].[Ru+2].c1csc(-c2nc3c4cccnc4c4ncccc4c3[nH]2)c1", "test": "cell viability", "conditions": "normoxia, added: green light 523 nm, 100 J/cm2", "quantity": "EC50", "value": "103000 nM"}
{"Compound": "CCCCCCCCC1(CCCCCCCC)c2cc(-c3cc4[n+]5c(c3)-c3cccc[n+]3[Ir-3]536([n+]5ccccc5-c5cc(-c7ccccc7)cc([n+]53)-c3cccc[n+]36)[n+]3ccccc3-4)ccc2-c2ccc(-c3cc4[n+]5c(c3)-c3cccc[n+]3[Ir-3]536([n+]5ccccc5-c5cc(-c7ccccc7)cc([n+]53)-c3cccc[n+]36)[n+]3ccccc3-4)cc21.F[P-](F)(F)(F)(F)F.F[P-](F)(F)(F)(F)F.F[P-](F)(F)(F)(F)F.F[P-](F)(F)(F)(F)F.F[P-](F)(F)(F)(F)F.F[P-](F)(F)(F)(F)F", "test": "cell viability, resazurin", "conditions": "16 h before light, red light 100 J/cm2", "quantity": "EC50", "value": "59700 ± 400 nM"}
{"Compound": "FC(F)(F)c1ccnc(-c2cc(C(F)(F)F)ccn2)c1.FC(F)(F)c1ccnc(-c2cc(C(F)(F)F)ccn2)c1.[Cl-].[Cl-].[Ru+2].c1csc(-c2ccc(-c3ccc(-c4ccc(-c5nc6c7cccnc7c7ncccc7c6[nH]5)s4)s3)s2)c1", "test": "cell viability", "conditions": "hypoxia 1% O2, added: green light", "how to read": "reference: dark EC50 over light EC50", "quantity": "mean phototherapeutic index", "value": 210}
{"Compound": "CC(=C(c1ccc(O)cc1)c1ccc(Cl)cc1)c1ccc(Cl)cc1", "test": "cell growth or viability, SRB", "quantity": "GI50", "value": "810 nM"}
{"Compound": "N#Cc1c(-c2ccc(Cl)cc2)cc(-c2cccc3ccccc23)nc1Nc1ccc(Nc2nc(-c3cccc4ccccc34)cc(-c3ccc(Cl)cc3)c2C#N)cc1", "test": "cell growth or viability, MTT", "conditions": "72 h", "quantity": "IC50", "value": "1530 nM"}
{"Compound": "FC(F)(F)c1ccnc(-c2cc(C(F)(F)F)ccn2)c1.FC(F)(F)c1ccnc(-c2cc(C(F)(F)F)ccn2)c1.[Cl-].[Cl-].[Ru+2].c1cnc2c(c1)ccc1cccnc12", "test": "cell growth or viability, resazurin", "conditions": "dark", "quantity": "EC50", "value": "> 300000 nM"}
{"Compound": "CC/C=C\\C/C=C\\C/C=C\\C/C=C\\C/C=C\\C/C=C\\CCC(=O)Nc1ccn(C2OC(CO)C(O)C2(F)F)c(=O)n1 (centres unmarked)", "test": "cell growth or viability, SRB", "quantity": "GI50", "value": "10100 nM"}
{"Compound": "CC(=O)OC[C@H]1O[C@@H](Sc2sc(C(=O)c3ccc(C)cc3)c(N)c2-c2nc3ccccc3s2)[C@H](OC(C)=O)[C@@H](OC(C)=O)[C@H]1OC(C)=O", "test": "SRB", "conditions": "10 µM, 48 h", "how to read": "reference: untreated", "quantity": "growth", "value": "103%"}
{"Compound": "CCCCCCCCC1(CCCCCCCC)c2cc(C#Cc3cc4[n+]5c(c3)-c3cccc[n+]3[Ir-3]536([n+]5ccccc5-4)[n+]4ccccc4-c4cc(-c5ccccc5)cc([n+]43)-c3cccc[n+]36)ccc2-c2ccc(C#Cc3cc4[n+]5c(c3)-c3cccc[n+]3[Ir-3]536([n+]5ccccc5-4)[n+]4ccccc4-c4cc(-c5ccccc5)cc([n+]43)-c3cccc[n+]36)cc21.F[P-](F)(F)(F)(F)F.F[P-](F)(F)(F)(F)F.F[P-](F)(F)(F)(F)F.F[P-](F)(F)(F)(F)F.F[P-](F)(F)(F)(F)F.F[P-](F)(F)(F)(F)F", "test": "cell viability, resazurin", "conditions": "16 h before light, visible light 100 J/cm2", "quantity": "EC50", "value": "830 ± 50 nM"}
{"Compound": "FC(F)(F)c1ccnc(-c2cc(C(F)(F)F)ccn2)c1.FC(F)(F)c1ccnc(-c2cc(C(F)(F)F)ccn2)c1.[Cl-].[Cl-].[Ru+2].c1csc(-c2ccc(-c3ccc(-c4nc5c6cccnc6c6ncccc6c5[nH]4)s3)s2)c1", "test": "cell viability", "conditions": "100 J/cm2 light, normoxia, added: visible light 400-700 nm", "quantity": "EC50", "value": "210 nM"}
{"Compound": "CC(=O)OC[C@H]1O[C@@H](Sc2sc(C(=O)c3ccc(Br)cc3)c(N)c2-c2nc3ccccc3s2)[C@H](OC(C)=O)[C@@H](OC(C)=O)[C@@H]1OC(C)=O", "test": "SRB", "conditions": "10 µM, 48 h", "how to read": "reference: untreated", "quantity": "growth", "value": "70.7%"}
